Published values of several laboratories.
Each line is one published result; not all experiments were run side by side. ± gives the spread as reported. ≈ marks a conversion by molar mass, not a printed value.

COc1ccc(C2CC(c3ccc(C)cc3)=Nc3ccccc3S2)cc1 (stereo not shown) — body weight (Wistar rat, STZ-induced diabetes; oral, 20 mg/kg once daily, day 1): 198 ± 4.66 g
O=C(CCC(C(=O)[O-])N1CCN(C(CCC(=O)NCC(O)CO)C(=O)[O-])Cc2cccc(n2)CN(C(CCC(=O)NCC(O)CO)C(=O)[O-])CC1)NCC(O)CO.[153Gd+3] (stereo not shown) — excreted radioactivity (Beagle dog, feces; intravenous, 0.2 mmol Gd/kg, 168 h; baseline: dose): 5.7%
[64Cu+2].c1cnc(CNCc2ccc(CN3CCCN4CCNCCCN(CC4)CC3)cc2)nc1 — tissue uptake (CXCR4; NOD/SCID mouse, U87 and U87-stb-CXCR4 xenografts, blood; iv, 90 min, no blocking dose, ex vivo): 0.64 ± 0.05 %ID/g
CC[C@H](C)[C@H](NC(=O)[C@H](Cc1ccccc1)NC(=O)[C@H](CC(=O)O)NC(=O)[C@H](CCCNC(=N)N)NC(=O)[C@H](Cc1ccccc1)NC(=O)[C@H](Cc1ccccc1)NC(=O)[C@H](CCN)NC(=O)[C@H](CO)NC(=O)[C@H](CC(C)C)NC(=O)[C@H](CCCNC(=N)N)NC(=O)[C@H](CCSC)NC(=O)[C@H](C)N)C(=O)N[C@@H](CCCCN)C(=O)N[C@@H](CCC(N)=O)C(=O)N[C@@H](CCCNC(=N)N)C(=O)N[C@@H](CCCCN)C(=O)N[C@@H](CCCCN)C(=O)O — helicity (circular dichroism; 20% TFE in PBS; 200 µM, pH 7.4, 25 °C): 16.2%
CC1=C(/C=C/C(=O)N2CCN(C(N)=O)CC2)C(C)(C)CCC1 — Cmax (male mice, plasma; oral, 40 mg/kg): 19.6 nmol/g
CCN(CC)CCCSC(=S)N1CCN(C(=O)/C=C/c2coc3cc(F)ccc3c2=O)CC1 — protective effect (tomato spotted wilt virus; viral infection, half-leaf method; Nicotiana glutinosa; 500 µg/mL): 54.5 ± 2.8%
Cc1ccc(-c2ccc(-c3cc4sccc4o3)cn2)nc1 — radiative decay rate constant (TCSPC; DMSO): 0.5 ns⁻¹
CC(=O)OC(CCl)Cn1cncc1[N+](=O)[O-] (stereo not shown) — mutagenic potency (Salmonella enterica serovar Typhimurium; Ames test, Bernstein slope; TA1535): 0.51 ± 0.07 revertants/µg
CCC(=O)N(C)c1ccc(Cl)c(Cl)c1 — cells with one aberration (CHO-WBL; 0.13 mg/mL, 3 h, with S9 activation): 0%
O=C(Cc1ccccc1)Nc1nc2ccccc2n1Cc1ccccc1 — aqueous solubility (shake-flask; 24 h, pH 7.0, room temperature): 1.65 µg/mL (≈ 4.83 µM)
O=Cc1c(O)ccc2ccccc12 — log2 fold change (HUVEC; RNA sequencing, item: BEX2; 75 µM, 24 h; baseline: DMSO): 5.26
CC(=O)N[C@H](C(=O)N[C@H](C(=O)N[C@@H](CCCNC(=N)N)C(=O)N1Cc2ccccc2C[C@H]1C(=O)N[C@@H](Cc1ccccc1)C(N)=O)C1CCCCC1)C(C)C — cytokine level (human PBMC; Bio-Plex multiplex, item: MCP-1(MCAF); 500 µg/mL, 24 h): 4790 ± 4890 pg/mL
O=C([O-])CN1CCN(CC(=O)[O-])CCN(CC(=O)NCC2CCC(C(=O)NC(Cc3ccc4ccccc4c3)C(=O)NCCCCC(NC(=O)NC(CCC(=O)O)C(=O)O)C(=O)O)CC2)CCN(CC(=O)[O-])CC1.[44Sc+3] (stereo not shown) — intact complex (transmetallation stability; 2 h, 37 °C, together with: Mg2+ 10 mM): 98 ± 0.8%
CC(=O)N[C@H](CC(=O)O)C(=O)N[C@H](Cc1c[nH]c2ccccc12)C(=O)N[C@H](Cc1ccccc1)C(=O)N[C@H](CCCCN)C(=O)N[C@H](C)C(=O)N[C@H](Cc1ccccc1)C(=O)N[C@H](Cc1ccc(O)cc1)C(=O)N[C@H](CC(=O)O)C(=O)N[C@H](CCCCN)C(=O)N[C@@H](C(=O)N[C@H](C)C(=O)N[C@H](CCC(=O)O)C(=O)N[C@H](CCCCN)C(=O)N[C@H](Cc1ccccc1)C(=O)N[C@H](CCCCN)C(=O)N[C@H](CCC(=O)O)C(=O)N[C@H](C)C(=O)N[C@H](Cc1ccccc1)C(N)=O)C(C)C — AUC(0-t) (statin-treated high-risk CHD women, plasma; oral, 500 mg daily, day 13, 0 to 8 h, mean, outlier excluded): 247 ng·h/mL
CC(=O)N[C@H](CSSC[C@H](N)C(=O)O)C(=O)N[C@H](C)C(=O)N[C@H](CCCNC(=N)N)C(=O)N[C@H](CCCNC(=N)N)C(=O)N[C@H](CCCNC(=N)N)C(=O)N[C@H](C)C(=O)N[C@H](CCCNC(=N)N)C(N)=O — clearance (male human, plasma; intravenous, 2 mg, single dose, healthy volunteers): 114 mL/min
C=CC(=O)Nc1cc(Nc2nccc(-c3cn(C)c4ccccc34)n2)c(O)nc1N(C)CCN(C)C — remaining parent compound (LC-MS; human liver microsomes; 3 µM, 60 min, together with: ticlopidine 24 µM; baseline: no inhibitor): 86%
CCCC[C@H](NC(=O)CNC(=O)CNC(=O)CN1CCN(CC(=O)O)CCN(CC(=O)O)CCN(CC(=O)O)CC1)C(=O)N[C@H]1CC(=O)NCCCC[C@@H](C(N)=O)NC(=O)[C@H](Cc2c[nH]c3ccccc23)NC(=O)[C@H](CCCNC(=N)N)NC(=O)[C@@H](Cc2ccccc2)NC(=O)[C@H](Cc2c[nH]cn2)NC1=O [lutetium-177 labelled] — tissue uptake (C57 mouse, female, tumour; intravenous, 0.037 MBq, 4 h): 15.8 ± 1.45 %ID/g
NC12CNCCNCC(NCc3ccc(CNC(=O)CCCC(=O)NCc4ccc(-c5nncnn5)cc4)cc3)(CNCCNC1)CNCCNC2.[64Cu+2] — mean absorbed dose (OLINDA dosimetry; kidneys; 24 h pretargeting interval, together with: huA33-TCO pretargeting): 0.066 rad/mCi
CN1C(=O)[C@@H](Cc2ccc(O)cc2)NC(=O)CNC(=O)[C@H](Cc2ccc3ccccc3c2)NC(=O)[C@H](CCCNC(=N)N)NC(=O)[C@H]1CCCNC(=O)c1ccc(CNC(=O)CN2CCN(CC(=O)O)CCN(CC(=O)O)CCN(CC(=O)O)CC2)cc1 [gallium-68 labelled] — tissue uptake (SCID mice, lymphoma xenograft, stomach; intravenous, 1 h): 0.9 ± 0.1 %ID/g
CC(C)(Sc1cc[n+]([O-])cc1-c1ccc(C#N)c2ccccc12)C(=O)OC1OC(C(=O)O)C(O)C(O)C1O (stereo not shown) — AUC(0-inf) increase (adult men, plasma; oral, 15 mg verinurad, moderate renal impairment; baseline: normal renal function): 141%
O=C(CCc1ccc(CNC(C(=O)O)C2CCCCC2)cn1)NO (stereo not shown) — accumulation ratio Cmax (human, plasma; oral, 40 mg once daily, median; baseline: day 7 over day 1): 1.12
CCOc1ccc(Cc2cc([C@@H]3O[C@H](CO)[C@@H](O)[C@H](O[C@@H]4O[C@H](C(=O)O)[C@@H](O)[C@H](O)[C@H]4O)[C@H]3O)ccc2Cl)cc1 — urinary concentration ratio (dog, urine; baseline: dog over human): 30
[2H]C([2H])([2H])NC(=O)c1ccc(N2C(=S)N(c3ccc(C#N)c(C(F)(F)F)c3)C(=O)C2(C)C)cc1F — adverse events (healthy men; oral, 40 mg, 50 days, fasting, soft capsules): 4 occurrences
Cn1c(=O)oc2ccc(-c3ccc(CC(C#N)NC(=O)C4CNCCCO4)c(F)c3)cc21 (stereo not shown) — AST increased incidence (human; oral, 10 mg once daily, TEAE, multiple ascending dose): 0%
O=C(O)c1cccc(S(=O)(=O)Nc2ccccc2)c1 — Cmax metabolic ratio (human, moderate liver dysfunction, plasma; intravenous, 400 mg/m^2 belinostat, cycle 1 day -7, geometric mean; baseline: metabolite over belinostat): 0.0738
CN(C)CCSC(=S)N1CCN(C(=O)/C=C/c2coc3ccccc3c2=O)CC1 — protective effect (tomato spotted wilt virus; viral infection, half-leaf method; Nicotiana glutinosa; 500 µg/mL): 60.8 ± 3.9%
O=C(O)C1CN(Cc2ccc(-c3noc(-c4ccc(OCC[18F])c(C(F)(F)F)c4)n3)cc2)C1 — tissue uptake (Sprague-Dawley rat, male, normal, thymus; iv, 5 min): 0.15 ± 0.023 %ID/g
C[C@H](NC(=O)[C@H](C)NC(=O)[C@H](C)NC(=O)[C@H](CCCNC(=N)N)NC(=O)[C@H](CCCNC(=N)N)NC(=O)[C@H](C)NC(=O)[C@H](C)NC(=O)[C@H](C)NC(=O)[C@H](C)NC(=O)[C@H](CCCNC(=N)N)NC(=O)[C@H](CCCNC(=N)N)NC(=O)[C@H](C)NC(=O)[C@H](C)NC(=O)[C@H](C)NC(=O)[C@H](C)NC(=O)[C@H](CCCNC(=N)N)NC(=O)[C@H](CCCNC(=N)N)NC(=O)c1ccc2c(c1)C(=O)OC21c2ccc(O)cc2Oc2cc(O)ccc21)C(=O)N[C@@H](C)C(=O)N[C@@H](CCCNC(=N)N)C(=O)N[C@@H](CCCNC(=N)N)C(=O)O — cartilage uptake ratio (bovine, healthy cartilage explants; 30 µM, 24 h, 37 °C, 5-FAM labelled; baseline: tissue over bath concentration): ~50
COCCn1c2ccc([N+](=O)[O-])cc2c(=O)n1Cc1ccccc1 — CC50 (resazurin; peritoneal macrophages, BALB/c mice; 48 h, 10% FBS): 4.8 ± 1 µM
CCCC[C@H](NC(=O)CNC(=O)CNC(=O)CN1CCN(CC(=O)O)CCN(CC(=O)O)CCN(CC(=O)O)CC1)C(=O)N[C@H]1CC(=O)NCCCC[C@@H](C(N)=O)NC(=O)[C@H](Cc2c[nH]c3ccccc23)NC(=O)[C@H](CCCNC(=N)N)NC(=O)[C@@H](Cc2ccccc2)NC(=O)[C@H](Cc2c[nH]cn2)NC1=O [gallium-67 labelled] — tumour to skin uptake ratio (C57 mice, B16/F1 melanoma; 24 h): 9.95
N=C(N)NCCC[C@@H]1NC(=O)[C@H](Cc2c[nH]c3ccccc23)NC(=O)[C@@H](CC2CCCCC2)NC(=O)[C@@H]2CCCN2C(=O)[C@@H](NC(=O)CCc2ccccc2)CCCNC1=O — beta elimination rate constant (C57BL/6J mouse, spinal cord; intraperitoneal, 1 mg/kg, single dose, two-compartment model): 0.24 h⁻¹
COc1cc(NC(C)=O)c2c(c1O)-c1c(OC)c(OC)cc3c1C(C2)N(C)CC3 (stereo not shown) — remaining compound (rat kidney homogenate; 100 µg/mL, 4 h, room temperature, short-term storage): 93.9 ± 2.7%
O=C(O)[C@@H]1C[C@@H](O)CN1C(=O)[C@@H]1CCCN1 — log beta (potentiometric titration; 40 °C, MA complex, together with: Fe(III)): 14.9
[64Cu+2].c1ccc(CNCc2ccc(CN3CCCN4CCNCCCN(CC4)CC3)cc2)nc1 — tissue uptake (CXCR4 (human); NOD/SCID mice, U87 xenografts, small intestine; 30 min post-injection): 6.7 ± 2.72 %ID/g
CN(Cc1ccc(F)cc1)Cc1cc(=O)oc2cc(O)ccc12 — remaining intact compound (HepG2 cell medium; 0.5 mM, 0 min): > 99%
CN1CCC[C@]1(C)/C=C/S(=O)(=O)NC(=O)Nc1c2c(cc3c1CCC3)CCC2 — Cmax after first dose (human, plasma; oral, 100 mg twice daily, day 14, multiple ascending dose): 16400 ng/mL
CC(C)c1cnc(-c2cc(Cl)ccc2F)cc1Nc1ccncc1C(=O)NC(CO)CO — patients with treatment-related adverse event (monotherapy, item: fatigue; human patients; oral, dose not given, grade 3, phase I A): 2.4%

For quick reference, copied from above:
CCCC[C@H](NC(=O)CNC(=O)CNC(=O)CN1CCN(CC(=O)O)CCN(CC(=O)O)CCN(CC(=O)O)CC1)C(=O)N[C@H]1CC(=O)NCCCC[C@@H](C(N)=O)NC(=O)[C@H](Cc2c[nH]c3ccccc23)NC(=O)[C@H](CCCNC(=N)N)NC(=O)[C@@H](Cc2ccccc2)NC(=O)[C@H](Cc2c[nH]cn2)NC1=O [gallium-67 labelled] — tumour to skin uptake ratio (C57 mice, B16/F1 melanoma; 24 h): 9.95
N=C(N)NCCC[C@@H]1NC(=O)[C@H](Cc2c[nH]c3ccccc23)NC(=O)[C@@H](CC2CCCCC2)NC(=O)[C@@H]2CCCN2C(=O)[C@@H](NC(=O)CCc2ccccc2)CCCNC1=O — beta elimination rate constant (C57BL/6J mouse, spinal cord; intraperitoneal, 1 mg/kg, single dose, two-compartment model): 0.24 h⁻¹
COc1cc(NC(C)=O)c2c(c1O)-c1c(OC)c(OC)cc3c1C(C2)N(C)CC3 (stereo not shown) — remaining compound (rat kidney homogenate; 100 µg/mL, 4 h, room temperature, short-term storage): 93.9 ± 2.7%
